# Measured values collected from several papers.
# Compare with care: the assays were run in different laboratories. Values joined by “and” are separate records of one study, mostly repeats; a detail may differ. ± gives the spread as reported.
# 4'-phosphopantetheinyl transferase PptT: 4'-phosphopantetheinyl transferase PptT (Mycobacterium tuberculosis, UniProt O33336)
# kasA: 3-oxoacyl-[acyl-carrier-protein] synthase 1 (kasA, Mycobacterium tuberculosis, UniProt P9WQD9)
# SLC6A3: Sodium-dependent dopamine transporter (SLC6A3, Homo sapiens, UniProt Q01959)
# LTB4R: Leukotriene B4 receptor 1 (LTB4R, Homo sapiens, UniProt Q15722)
# uncharacterized protein: uncharacterized protein (Vibrio cholerae, UniProt A0A0X1KYD0)
# cydA with subunit CydB: cydA, with subunit CydB (Mycobacterium tuberculosis, UniProt L7N662)
# Oprm1: Mu-type opioid receptor (Oprm1, Rattus norvegicus, UniProt P33535)
# CHRM3: Muscarinic acetylcholine receptor M3 (CHRM3, Homo sapiens, UniProt P20309)
Compound,tested on,test,test system,conditions,how to read,quantity,result
COc1ccc(N2C(=O)N(c3c(C)cccc3Cl)Cc3cnc(Nc4ccc(C5CCN(C)CC5)cc4OC)nc32)nc1,"Vascular endothelial growth factor receptor 1 (FLT1, Homo sapiens, UniProt P17948)",kinase activity,,0.5 µM,,inhibition,26%
O=c1c2cc(Cl)ccc2[nH]c(=S)n1Cc1cccnc1,4'-phosphopantetheinyl transferase PptT,"enzyme activity, inhibitor, preincubation and dialysis",,"concentration not given, overnight dialysis",,activity recovery,~75%
O=C(c1ccc(Cl)cc1)N1CCN2C(=O)N(OC(=O)N3CCOc4ccccc43)C(=O)C2C1 (stereo not shown),"Protein phosphatase methylesterase 1 (Homo sapiens, UniProt Q9Y570)",MS-based ABPP,SW-620 conditioned medium,"10 µM, 1 h, 37 °C","baseline: compound over DMSO, lower = more inhibition",median protein ratio,1
COC(=O)[C@@H](NC(=O)c1nn(Cc2ccc(F)cc2)c2ccccc12)C(C)(C)C,"Cannabinoid receptor 1, with Gi1 (CNR1, Homo sapiens, UniProt P21554)","GTP turnover, agonist, item: Gi1 Gα subtype",,,,maximal efficacy,111%
Oc1ccc2c3c1O[C@H]1[C@@H](O)CC[C@@]4(O)[C@@H](C2)N(CC2CCC2)CC[C@]314,"Mas-related G-protein coupled receptor member X2 (MRGPRX2, Homo sapiens, UniProt Q96LB1)","β-arrestin recruitment, TANGO luminescence",,concentration not given,baseline: basal luminescence,log2 fold change,-0.257
CCn1ncc2ccc(NS(=O)(=O)c3ccc(OC)c(OC)c3)cc21,kasA,"thermal stabilization, nanoDSF",,100 µM,,ΔTm,-0.15 °C
c1ccc2cc([C@]34CNC[C@H]3C4)ccc2c1,SLC6A3,"inhibitor, [3H]dopamine uptake",,1 µM,baseline: no inhibitor,dopamine uptake,17.3% and 12.7% and 12.2%
CCCC(C(=O)c1ccc2c(c1)OCO2)N1CCCC1 (stereo not shown),SLC6A3,"transporter current, inhibitor",,with: dopamine 30 µM,,maximal inhibition rate (kapp),1.99 s⁻¹
CCc1nc2ccc(Cl)cn2c1C(=O)NCC(O)c1cccc(C(F)(F)F)c1 (stereo not shown),kasA,"thermal stabilization, nanoDSF",,100 µM,,ΔTm,0.02 °C
O=C(Nc1cnccc1Cl)N1CCN(Cc2ccc3c(c2)OC(F)(F)O3)CC1,LTB4R,radioligand binding,,"10 µM, with: [3H]LTB4",,inhibition of binding,1%
Nc1nc2c(ncn2[C@@H]2O[C@H](COP(=O)(O)OP(=O)(O)O)[C@@H](O)[C@H]2O)c(=O)[nH]1,uncharacterized protein,"nucleotide binding, isothermal titration calorimetry",,"concentration not given, with Mg2+",,binding stoichiometry,~1
CCn1ncc2ccc(NS(=O)(=O)c3cc(C(=O)O)ccc3C)cc21,kasA,"thermal stabilization, nanoDSF",,100 µM,,ΔTm,-0.24 °C
"COC(=O)C1C(OC(=O)c2ccccc2)CC2CCC1N2C (single isomer, unassigned; (-))","Sodium channel protein type 4 alpha, BTX-activated (Oryctolagus cuniculus, UniProt G1SLL9)",,rabbit,,,apparent off-rate,~60 s⁻¹
Cc1[nH]c2ccccc2c(=O)c1-c1ccc(Oc2ccc(OC(F)(F)F)cc2)cc1,cydA with subunit CydB,"enzyme activity, biochemical",,,,Km,8.7 ± 1.6 µM
COc1cc2c(Oc3ccc4[nH]c(C)cc4c3F)ccnc2cc1OCC1(N)CC1,,,paediatric recurrent refractory sarcoma,12 mg,,grade 3 AST elevation,0%
CC(C)n1ncc2ccc(NS(=O)(=O)c3ccc(CCC(=O)O)cc3)cc21,kasA,"thermal stabilization, nanoDSF",,100 µM,,ΔTm,-0.21 °C
Cc1nc2ccc(CN(C)c3ccc(C(=O)N[C@@H](CCC(=O)O)C(=O)O)s3)cc2c(=O)[nH]1,4'-phosphopantetheinyl transferase PptT,"enzyme activity, inhibitor, fluorescence polarisation",,,,Hill slope,1.4
CCC[C@@H](C(=O)c1ccc(C)cc1)N1CCCC1,SLC6A3,"DAT-mediated current recovery, electrophysiology",human DAT-expressing cells,with: 30 µM dopamine,,koff,0.032 s⁻¹
CC(NC(C)(C)C)C(=O)c1cccc(Cl)c1 (stereo not shown),"Voltage-dependent P/Q-type calcium channel subunit alpha-1A (Homo sapiens, UniProt O00555)","ion current, antagonist",HEK293,3 µM,,inhibition,16%
O=[N+]([O-])c1ccc(CCN2CC[C@@]3(c4cccc(O)c4)CCC[C@@H]2[C@H]3O)cc1,Oprm1,agonist,C6 cells,,baseline: delta over mu opioid receptor,selectivity ratio,~850
COc1c(O)c(C)c(CC=C(C)C)c(O)c1OC,cydA with subunit CydB,"enzyme activity, biochemical",,,,Km,51.6 ± 8.9 µM
Clc1cc(Cl)cc(N2CCNCC2)c1,CHRM3,"ERK1/2 phosphorylation, agonist",CHO cells,,,Emax,< 10%
CCc1nc2ccc(Cl)cn2c1C(=O)N1C2CCC1CC2,kasA,"thermal stabilization, nanoDSF",,100 µM,,ΔTm,0.1 °C
Nc1nc2c(ncn2[C@@H]2O[C@H](COP(=O)(O)OP(=O)(O)CP(=O)(O)O)[C@@H](O)[C@H]2O)c(=O)[nH]1,uncharacterized protein,"nucleotide binding, isothermal titration calorimetry",,"concentration not given, no Mg2+",,binding stoichiometry,~1
C[C@H]1CN(c2n[nH]c3nc(N[C@H]4CC[C@H](NS(=O)(=O)CCC(F)(F)F)CC4)ncc23)CCO1,"Myosin light chain kinase, smooth muscle (MYLK, Homo sapiens, UniProt Q15746)","inhibitor, Kinobeads competition profiling",,0.16 µM,baseline: vehicle,relative abundance,1.07
CC(C)C[C@@H]1NC(=O)[C@H](CC(C)C)NC(=O)[C@H](Cc2c[nH]c3ccccc23)NC(=O)[C@H](CO)NC(=O)[C@H](Cc2c[nH]c3ccccc23)NC(=O)[C@@H]2CCCN2C(=O)[C@H](CC(C)C)NC(=O)[C@H](Cc2c[nH]cn2)NC(=O)[C@@H]2CCCN2C(=O)[C@H](CC(N)=O)NC(=O)[C@H](C)NC(=O)[C@H](Cc2ccc(O)cc2)NC(=O)[C@H](CS)NC(=O)[C@H](CCCCNC(=O)CN2CCN(CC(=O)O)CCN(CC(=O)O)CCN(CC(=O)O)CC2)NC1=O [lutetium-177 labelled],,,"BALB/c mice, 4T1 tumour","iv, 3.7 MBq, 1 h, unblocked",,tumour uptake,6.97 ± 1.04 %ID
CC[C@H](C)[C@@H]1NC(=O)[C@@H]2CCCN2C(=O)[C@H](CC(C)C)NC(=O)[C@H](CC(C)C)NC(=O)CNC(=O)[C@@H](NC(=O)[C@@H](NC(=O)[C@H](CC(=O)O)NC(=O)CNC(=O)[C@@H](NC(=O)[C@H](C)NC(=O)CNC(=O)[C@H](CCCCN)NC(=O)[C@H](CC(C)C)NC(=O)[C@H](CC(C)C)NC(=O)[C@H](CCCCN)NC(=O)CNC(=O)[C@@H](NC(=O)[C@@H](N)CC(C)C)C(C)C)C(C)C)C(C)C)CSSC[C@@H](C(=O)O)NC1=O,,"RNA-seq, item: Igsf6","mouse, traumatic brain injury model, frontal cortex and hippocampus",dose not given,baseline: TBI alone,log2 fold change,-2.21
COc1cc(Nc2ncc(F)c(Nc3ccc4c(n3)NC(=O)C(C)(C)O4)n2)cc(OC)c1OC,"Dipeptidyl peptidase 4 (DPP4, Homo sapiens, UniProt P27487)","enzyme activity, inhibitor",,,,IC50,> 10 µM
Cc1ccc(C(=O)O)cc1S(=O)(=O)Nc1ccc2cnn(C(C)C)c2c1,kasA,"thermal stabilization, nanoDSF",,100 µM,,ΔTm,-0.23 °C
Oc1cccc([C@]23CCC[C@H]([C@H]2O)N(CC=Cc2ccccc2)CC3)c1,Oprm1,agonist,C6 cells,,baseline: delta over mu opioid receptor,selectivity ratio,133
NCCc1ccccc1,"Trace amine-associated receptor 1 (Macaca mulatta, UniProt Q8HZ64)","CRE-luciferase reporter, agonist",TAAR1-expressing cells,"10 µM, 18 h",baseline: vehicle,reporter activity,531%
CCCCCCCC[C@H]1O[C@H]1C/C=C/C=C/[C@H](O)CC(=O)NC1=C[C@](C)(CC)OC1=O,"Na(+)-translocating NADH-quinone reductase subunit B, whole Na+-NQR complex (nqrB, Vibrio cholerae serotype O1, UniProt Q9KPS2)",isothermal titration calorimetry,,20 °C,,ΔG,-10 kcal/mol
CN1CCN(c2cc(-c3ccncc3)c(-c3ccc4ccccc4c3)nn2)CC1,CHRM3,"antagonist, FLIPR",,10 µM,,inhibition,10.2%
Cl.O=C(O)CCNC1CCN(c2ccc(OC(F)(F)F)cc2)CC1,kasA,"thermal stabilization, nanoDSF",,100 µM,,ΔTm,-0.21 °C
Oc1ccc2c3c1O[C@H]1c4oc5ccccc5c4C[C@@]4(O)[C@@H](C2)N(CC2CC2)CC[C@]314,"Transient receptor potential cation channel subfamily M member 7 (Trpm7, Mus musculus, UniProt Q923J1)","Ca2+ influx, activator, aequorin",HEK-293T,,,Hill coefficient,1.19 ± 0.14
CCCCCCCCCCc1c(C)c(O)c(OC)c(OC)c1O,cydA with subunit CydB,biochemical,,,,specific activity,9 µmol/min/mg and 5.1 µmol/min/mg
CC[C@H](C)[C@H](NC(=O)[C@H](Cc1ccccc1)NC(=O)[C@H](CCC(=O)O)NC(=O)[C@H](CCCNC(=N)N)NC(=O)[C@H](C)NC(=O)[C@H](C)NC(=O)[C@H](CCC(N)=O)NC(=O)[C@H](CCC(=O)O)NC(=O)[C@H](CCC(=O)O)NC(=O)[C@H](CC(C)C)NC(=O)[C@H](Cc1ccc(O)cc1)NC(=O)[C@H](CO)NC(=O)[C@H](CO)NC(=O)[C@@H](NC(=O)[C@H](CC(=O)O)NC(=O)[C@H](CO)NC(=O)[C@@H](NC(=O)[C@H](Cc1ccccc1)NC(=O)[C@@H](NC(=O)CNC(=O)[C@H](CCC(=O)O)NC(=O)[C@H](C)NC(=O)CCc1c[nH]cn1)[C@@H](C)O)[C@@H](C)O)C(C)C)C(=O)N[C@@H](C)C(=O)N[C@@H](Cc1c[nH]c2ccccc12)C(=O)N[C@@H](CC(C)C)C(=O)N[C@H](C(=O)N[C@@H](CCCNC(=N)N)C(=O)NCC(=O)N[C@@H](CCCNC(=N)N)C(=O)N[C@@H](CCCCNC(=O)COCCOCCNC(=O)COCCOCCNC(=O)CC[C@H](NC(=O)CCCCCCCCCCCCCCCCC(=O)O)C(=O)O)C(=O)NCC(=O)NCC(=O)N[C@@H](CO)C(=O)N[C@@H](CCCCNc1c(NCCCCCN(O)C(=O)CCC(=O)NCCCCCN(O)C(=O)CCC(=O)NCCCCCN(O)C(C)=O)c(=O)c1=O)C(=O)O)C(C)C [zirconium-89 labelled],,gamma counting,"rat, skin at injection site","intravenous, 3 nmol/kg, 72 h",,tissue uptake,0.1 %ID/g
C[C@@H](O)[C@@H](CO)NC(=O)[C@@H](CCCNC(=N)N)NC(=O)[C@@H]1CCCN1C(=O)[C@@H]1CSSC[C@H](NC(=O)[C@H](Cc2ccccc2)NC(=O)CN2CCN(CC(=O)O)CCN(CC(=O)O)CCN(CC(=O)O)CC2)C(=O)N[C@@H](Cc2ccc(O)cc2)C(=O)N[C@@H](Cc2ccccc2)C(=O)N[C@@H](CCC(N)=O)C(=O)N[C@@H](CC(N)=O)C(=O)N1 [gallium-68 labelled],,,"Wistar rat, liver","intravenous, 8 MBq, 120 min, group mean",,tissue uptake,0.05 %ID/g
COc1c(O)c(C)c(C/C=C(\C)CCC=C(C)C)c(O)c1OC,cydA with subunit CydB,biochemical,,,,specific activity,8.7 ± 2.5 µmol/min/mg
CO[C@H]1C[C@@H]2CC[C@@H](C)[C@@](O)(O2)C(=O)C(=O)N2CCCC[C@H]2C(=O)O[C@H]([C@H](C)C[C@@H]2CC[C@@H](OC(=O)NCCOCCOCCOCCOCCOCCOCCOCCOCCC(=O)N3CCc4cc(Cn5nc(-c6ccc7oc(N)nc7c6)c6c(N)ncnc65)ccc4C3)[C@H](OC)C2)C[C@@H](O)[C@H](C)/C=C(\C)[C@@H](O)[C@@H](OC)C(=O)[C@H](C)C[C@H](C)/C=C/C=C/C=C/1C,,,patients with advanced solid tumours,"intravenous, dose not given, grade ≥3",,Pneumonia AE leading to dose reduction,1.8%
O=C1c2c(O)ccc(O)c2C(=O)c2c(NCCNCCO)ccc(NCCNCCO)c21,4'-phosphopantetheinyl transferase PptT,inhibitor,,concentration not given,,enzyme activity,inactive
NCCc1ccc(Oc2ccc(O)cc2)c(I)c1,"Trace amine-associated receptor 1, with DAT (Macaca mulatta, UniProt Q8HZ64)","CRE-luciferase reporter, agonist",TAAR1-DAT co-expressing cells,"10 µM, 18 h",baseline: vehicle,reporter activity,760%
CCc1nc2ccc(Cl)cn2c1C(=O)NC1CC12CCOCC2 (stereo not shown),kasA,"thermal stabilization, nanoDSF",,100 µM,,ΔTm,-0.13 °C
C=CCN1CC[C@]23c4c5ccc(O)c4O[C@H]2C(=O)CC[C@]3(O)[C@H]1C5,LTB4R,,,concentration not given,,inhibition,1.9%
CN1CC[C@@]2(C)c3cc(OC(=O)Nc4ccccc4)ccc3N(C)[C@@H]12,human nicotinic α4β2 receptor,radioligand binding,,"10 µM, with: [3H]epibatidine",,inhibition,0.1%
CCCc1cc(O)c2c(c1)OC(C)(C)[C@@H]1CCC(C)=C[C@@H]21,"Transient receptor potential cation channel subfamily V member 3 (TRPV3, Homo sapiens, UniProt Q8NET8, R693F)","calcium uptake, agonist",HEK293S,"mutant R693F, site 3",,Hill coefficient,1.83 ± 0.58

# Some of these lines once more:
Compound,tested on,test,test system,conditions,how to read,quantity,result
CCc1nc2ccc(Cl)cn2c1C(=O)NC1CC12CCOCC2 (stereo not shown),kasA,"thermal stabilization, nanoDSF",,100 µM,,ΔTm,-0.13 °C
CCn1ncc2ccc(NS(=O)(=O)c3cc(C(=O)O)ccc3C)cc21,kasA,"thermal stabilization, nanoDSF",,100 µM,,ΔTm,-0.24 °C
Nc1nc2c(ncn2[C@@H]2O[C@H](COP(=O)(O)OP(=O)(O)CP(=O)(O)O)[C@@H](O)[C@H]2O)c(=O)[nH]1,uncharacterized protein,"nucleotide binding, isothermal titration calorimetry",,"concentration not given, no Mg2+",,binding stoichiometry,~1
CN1CC[C@@]2(C)c3cc(OC(=O)Nc4ccccc4)ccc3N(C)[C@@H]12,human nicotinic α4β2 receptor,radioligand binding,,"10 µM, with: [3H]epibatidine",,inhibition,0.1%
